Results pooled from the literature.
Parts stem from different laboratories: compare values within a part only.

Sample 1
Target: Histone acetyltransferase KAT6A, winged helix 1, GST fusion (KAT6A, Homo sapiens, UniProt Q92794, residues 1-85)
Method: protein binding microarray
Form: double-stranded DNA, one strand shown
Medium: in vitro
Tested at: not given
Notes: 8-mer, flanks averaged, mean of 2 arrays, mostly near background
Relative to: not given
Reading: higher = stronger binding
Residues (chain): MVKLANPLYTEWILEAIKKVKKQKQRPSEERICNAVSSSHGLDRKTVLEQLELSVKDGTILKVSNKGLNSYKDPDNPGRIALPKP
For `ACGGTGCC`, the E-score was 0.35.
For `CGCATTAG`, the E-score was 0.113.
The E-score of `CGTCATGA` is reported as 0.0992.
With `AAACATGG` the E-score was -0.0685.
The E-score of `CTGATGGA` is reported as 0.0387.
For `AAGGTGAC`, the E-score was -0.218.
`ACAGCCCT` gave an E-score of -0.0843.
For `AATATTAG`, the E-score was -0.231.

Sample 2
Target: Ras GTPase-activating protein-binding protein 1, C-terminal RGG region (G3BP1, Homo sapiens, UniProt Q13283)
Sequence of UniProt Q13283 (whole entry, looked up): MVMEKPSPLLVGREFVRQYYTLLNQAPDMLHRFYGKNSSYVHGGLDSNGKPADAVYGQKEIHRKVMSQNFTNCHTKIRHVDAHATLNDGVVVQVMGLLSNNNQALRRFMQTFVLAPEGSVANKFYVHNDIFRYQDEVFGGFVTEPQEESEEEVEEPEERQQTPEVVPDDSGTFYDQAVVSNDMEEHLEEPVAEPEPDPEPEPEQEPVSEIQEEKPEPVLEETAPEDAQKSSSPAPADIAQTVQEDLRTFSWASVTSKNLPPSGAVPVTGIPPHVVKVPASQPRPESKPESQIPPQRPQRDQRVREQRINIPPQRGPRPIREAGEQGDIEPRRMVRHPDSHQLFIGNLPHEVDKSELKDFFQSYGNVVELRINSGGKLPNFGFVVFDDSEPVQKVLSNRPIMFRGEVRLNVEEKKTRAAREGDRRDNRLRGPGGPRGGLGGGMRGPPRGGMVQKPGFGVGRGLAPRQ
Method: RNA Bind-n-Seq
Form: RNA
Medium: in vitro
Tested at: 1 µM
Notes: whole 134-nt RNA, ends assumed
Added: 150 mM KCl
Relative to: input library
Reading: higher = stronger binding
All sequences stand within: GGGAGUUCUACAGUCCGACGAUC … UGGAAUUCUCGGGUGUCAAGG
For `CCUCAAGUCCUGUGCUACACAUCGUAUGUACCGAAUCGGGGCGGGGCGGGCGGAAAGUAUUAUGUUACGCCGUUCGGAUCUGCACUUCCA`, the log2 enrichment was 0.343.
The log2 enrichment of `AGUCCUGUGCUACACAUCGUAUGUACCGAAUCGGGGUUUUUGGGGUGGGGAAAGGGGAAAGUAUUAUGUUACGCCGUUCGGAUCUGCACU` is reported as 2.25.
`UCAAGUCCUGUGCUACACAUCGUAUGUACCGAAUCGGUUUGGAAAAAGGAAAGGAAAGUAUUAUGUUACGCCGUUCGGAUCUGCACUUCC` gave a log2 enrichment of -1.39.
The log2 enrichment of `GCAGGAAGUAAAAACAAAUGGAAAUGCUUCGGAUCGUGGCAGGGGUGGGGGUUGCUAAGGAAAGGGUGGGAUGGGAGUGGGUAAAGAGUU` is reported as 2.42.
With `CUGUGCUACACAUCGUAUGUACCGAAUCGGGGAAAAAAAGGGAAAAAAAGGGGAAAAAAAGGAAAGUAUUAUGUUACGCCGUUCGGAUCU` the log2 enrichment was -1.23.
`GGCUGCUGGAGUGCCGUGAGCAGGCCGCGGGAACGUCGCCGUCACCUUGUCUCGGGGCCUCGGCGCUGCUUCCCGCCAAAACACGUUUAC` has a log2 enrichment of -1.69.
With `UCCUGUGCUACACAUCGUAUGUACCGAAUCGGGGUUUUUUUGGGGUGGGGAAAAAGGGGAAAGUAUUAUGUUACGCCGUUCGGAUCUGCA` the log2 enrichment was 1.29.

Sample 3
Target: Centromere-binding protein 1, full length, His-tagged (CBF1, Saccharomyces cerevisiae, UniProt P17106, residues 1-351)
Sequence of UniProt P17106 (whole entry, looked up): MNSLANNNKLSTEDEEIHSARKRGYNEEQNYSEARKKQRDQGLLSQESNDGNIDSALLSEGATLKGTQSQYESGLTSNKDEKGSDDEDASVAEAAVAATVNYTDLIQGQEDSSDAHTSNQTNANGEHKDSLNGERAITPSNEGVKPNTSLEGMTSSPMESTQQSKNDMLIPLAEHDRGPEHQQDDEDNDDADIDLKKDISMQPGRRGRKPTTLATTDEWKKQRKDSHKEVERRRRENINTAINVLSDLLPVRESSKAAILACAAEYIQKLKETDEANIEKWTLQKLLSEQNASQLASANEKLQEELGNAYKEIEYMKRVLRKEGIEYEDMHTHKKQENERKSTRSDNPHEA
Method: competition protein-binding microarray
Form: double-stranded DNA, one strand shown
Medium: in vitro
Tested at: 2 µM
Notes: whole 60-bp probe, lowest competitor level
Added: Pho4 competitor, 0.05 µM
Reading: higher = stronger binding
All sequences stand within: … GTCTTGATTCGCTTGACGCTGCTG
For `CAAACCACTTTGGTTACCGTGACGAACTGCGAATCT`, the fluorescence intensity was 91.3 a.u.
For `AACTGTGAATGGGGATGCGTGACGGGTTCGTCTCTG`, the fluorescence intensity was 95.8 a.u.
With `AAACATCAAATCCATCACGTGCTTTTTAAAAAATAT` the fluorescence intensity was 9070 a.u.
With `AAAGCGGTAATTTGAATCGTGGGTGCAGATATCTAT` the fluorescence intensity was 85.5 a.u.
`CATACCCAACCTTGCGTCGTGGGTGAAGATATTTGT` gave a fluorescence intensity of 58.2 a.u.
`CATTCAGTGCGTAACGACGCGAATAGGGCTTTGAAA` has a fluorescence intensity of 53.8 a.u.

Further values, each from its own experiment
`PhoQ, residues 284 288 289 292 302 303 AGGCYF` has a fold induction of 1.19 (PhoP, residues 12 14 15 18 19 NQAHL (Escherichia coli, UniProt P23836); Sort-seq, refers to: YFP reporter; E. coli; PhoQ-PhoP variant library, added: 10 µM Mg2+; relative to: high Mg2+ state, higher = stronger signaling).

Some of these lines once more (sample 3):
`CATACCCAACCTTGCGTCGTGGGTGAAGATATTTGT` gave a fluorescence intensity of 58.2 a.u.
`CATTCAGTGCGTAACGACGCGAATAGGGCTTTGAAA` has a fluorescence intensity of 53.8 a.u.
